Measured values collected from several papers.
Compare with care: the assays were run in different laboratories. ± gives the spread as reported.

Compound | target or system | assay | test system | setting | how to read | quantity | value
Nc1ccn([C@@H]2CS[C@H](CO)O2)c(=O)n1 | hepatitis B virus |  | HepDES19 |  | relative to: CC50 over EC50 | selectivity index | > 125
Cc1cc(C)cc(-c2ccc(CN3CCCC3C(=O)NCc3cccc(F)c3)cc2)c1 (stereo not drawn) | Vero-E6 | CellTiter-Glo ATP |  | concentration not given, 72 h, retest 8-point duplicates | relative to: DMSO 0%, hyamine -100%, more negative, more toxic | cytotoxicity efficacy | -24.3%
CNC(=O)c1c(N(C)N=O)ncn1C | Salmonella typhimurium | mutagenicity, Ames plate incorporation | TA1537 | 1500 µg/plate, without S9, methanol |  | revertant colonies per plate | 8 ± 3
CCCCNC(=O)C1CCCN(Cc2nc(-c3ccc(Cl)cc3)oc2C)C1 (stereo not drawn) | Vero-E6 | CellTiter-Glo ATP |  | concentration not given, 72 h, second round 5-point | relative to: DMSO 0%, hyamine -100%, more negative, more toxic | cytotoxicity efficacy | -28.6%
[Cl-].[Cl-].[Pt+2].[Ru+2].c1ccc(-c2nc3cc4ccccc4cc3nc2-c2ccccn2)nc1.c1cnc2c(c1)ccc1cccnc12.c1cnc2c(c1)ccc1cccnc12 | Danio rerio |  | embryos | 45 µM, 72 h |  | survival rate | 80 ± 4%
O=[N+]([O-])c1ccc(N2CCN(CCC(O)c3ccc(F)cc3)CC2)c(C(F)(F)F)c1 (stereo not drawn) | Salmonella typhimurium | genotoxicity, SOS/umu test | TA1535/pSK1002 | 0.063 mg/mL, 4 h, without S9, lower range |  | induction factor | 0.4
CCOC(=O)C1=C(CN2CCN(Cc3ccccc3B(O)O)CC2)NC(c2nccs2)=NC1c1ccc(F)cc1Br (stereo not drawn) | hepatitis B virus |  | HepDES19 |  | relative to: CC50 over EC50 | selectivity index | > 34
CCOP(=S)(OCC)SCSCC | Oncorhynchus kisutch | oxon formation, substrate | liver microsomes | 30 min, pH 7.6, freshwater-acclimated, with: NADPH |  | Km | 122 ± 11.8 µM
[Cl-].[Cl-].[Pt+2].[Ru+2].c1ccc(-c2nccnc2-c2ccccn2)nc1.c1cnc2c(c1)ccc1cccnc12.c1cnc2c(c1)ccc1cccnc12 | Danio rerio |  | embryos | 60 µM, 72 h |  | survival rate | 56.7 ± 3.7%
CCOC(=O)C1=C(CN2CCCC2C(=O)Nc2cccc(B3OC(C)(C)C(C)(C)O3)c2)NC(c2nccs2)=NC1c1ccc(F)cc1Br (stereo not drawn) | hepatitis B virus |  | HepDES19 |  | relative to: CC50 over EC50 | selectivity index | 80
Cc1cc(C(=O)NC(C)(C)COc2cccc3c2C(N)=NS(=O)(=O)N3)cc(C)n1 | Salmonella typhimurium | Ames test, initial | TA1537 | 50.0 µg/plate, with: rat liver S9 | relative to: solvent control | revertant ratio | 0.9
CCOC(=O)C1=C(CN2CCN(Cc3cccc(B4OC(C)(C)C(C)(C)O4)c3)CC2)NC(c2nccs2)=NC1c1ccc(F)cc1Br (stereo not drawn) | hepatitis B virus |  | HepDES19 |  | relative to: CC50 over EC50 | selectivity index | 18
O=[N+]([O-])c1ccc(NC2CCNCC2)c(C(F)(F)F)c1 | Salmonella typhimurium | SOS response, SOS/umu test | TA1535/pSK1002 | 0.001 mg/mL, 4 h, without S9 activation |  | umu induction factor | 0.7
O=C(Nc1cc(F)c(F)c(F)c1)c1ccc(F)c(S(=O)(=O)N2CCC(O)CC2)c1 | hepatitis B virus |  | HepAD38 |  | relative to: CC50 over EC50 | selectivity index | 31.2
CCOC(=O)C1=C(CN2CCC(C(=O)Nc3cccc(B(O)O)c3)C2)NC(c2nccs2)=NC1c1ccc(F)cc1Br (stereo not drawn) | hepatitis B virus |  | HepDES19 |  | relative to: CC50 over EC50 | selectivity index | 30
Fc1ccc(C2=CCNCC2)cc1 | Salmonella typhimurium | SOS/umu test | TA1535/pSK1002 | 0.004 mg/mL, 4 h, without S9, full range |  | survival | 95.8%
CCOC(=O)C1=C(CN2CCCC2C(=O)Nc2cccc(B(O)O)c2)NC(c2nccs2)=NC1c1ccc(F)cc1Br (stereo not drawn) | hepatitis B virus |  | HepDES19 |  | relative to: CC50 over EC50 | selectivity index | 79
[Cl-].[Cl-].[Pt+2].[Ru+2].c1ccc(-c2nc3ccccc3nc2-c2ccccn2)nc1.c1cnc2c(c1)ccc1cccnc12.c1cnc2c(c1)ccc1cccnc12 | Danio rerio |  | embryos | 60 µM, 12 h |  | survival rate | 83.3 ± 4.6%
N#C[C@@]1(n2ccc(N)nc2=O)O[C@H](CO)[C@@H](O)[C@H]1O | Salmonella typhimurium |  | TA1537 | 600 nM, without S9 |  | viability | 98%
CCOC(=O)C1=C(CN2CCC[C@@H]2C(=O)Nc2ccc(B(O)O)cc2)NC(c2nccs2)=N[C@H]1c1ccc(F)cc1Br | hepatitis B virus |  | HepDES19 |  | relative to: CC50 over EC50 | selectivity index | 481
OC(CCN1CC=C(c2ccc(F)cc2)CC1)c1ccc(F)c2ccccc12 (stereo not drawn) | Salmonella typhimurium | genotoxicity, SOS/umu test | TA1535/pSK1002 | 0.016 mg/mL, 4 h, with S9, full range |  | induction factor | 1
CC(=O)N1CCC(C(=O)N2CCN3C(=O)c4cc(-c5ccccc5)ccc4NC(=O)C3C2)CC1 (stereo not drawn) | Escherichia coli |  | WP2 uvrA | 1581 µg/plate, without S9 |  | revertants per plate | 31
O=[N+]([O-])c1ccc(N2CCC(NCCC(O)c3ccc(F)c4ccccc34)CC2)c(C(F)(F)F)c1 (stereo not drawn) | Salmonella typhimurium | SOS response, SOS/umu test | TA1535/pSK1002, TGA medium | 0.000488 mg/mL, 4 h, without S9 | relative to: untreated | induction factor | 0.7
COc1cccc(-c2n[nH]c(SCc3ccccn3)n2)c1OC | Escherichia coli | Ames test, plate incorporation | WP2 uvrA | 1.0 mg/plate, without S9 |  | revertant colonies per plate | 23

A few entries again:
Compound | target or system | assay | test system | setting | how to read | quantity | value
N#C[C@@]1(n2ccc(N)nc2=O)O[C@H](CO)[C@@H](O)[C@H]1O | Salmonella typhimurium |  | TA1537 | 600 nM, without S9 |  | viability | 98%
CCOC(=O)C1=C(CN2CCC[C@@H]2C(=O)Nc2ccc(B(O)O)cc2)NC(c2nccs2)=N[C@H]1c1ccc(F)cc1Br | hepatitis B virus |  | HepDES19 |  | relative to: CC50 over EC50 | selectivity index | 481
OC(CCN1CC=C(c2ccc(F)cc2)CC1)c1ccc(F)c2ccccc12 (stereo not drawn) | Salmonella typhimurium | genotoxicity, SOS/umu test | TA1535/pSK1002 | 0.016 mg/mL, 4 h, with S9, full range |  | induction factor | 1
